Results of several laboratories.
Numbered parts are unrelated; each lists some results of a single study. Changes are numbered by the printed parent chain.

Sample 1
Target: CCNA1, cyclin fold, Cln2 fusion (human)
Technique: yeast growth competition, sequencing
Medium: yeast
Setting: weak parent motif
Baseline: not given
Direction: higher = stronger binding
Endpoint: normalised enrichment score
Starting sequence: SAMHD1 docking peptide (human); ASKSRVQLFKDDP
Q7P: 0.119
F9K: -0.0834
K3A: 0.428
D12K: 0.109
K3H: 0.387
Q7E: 0.264
D11N: 0.285
D12Y: 0.768
L8V: 0.163
V6C: 0.258
Q7D: -0.158
F9N: 0.0637
K3P: -0.337
D11P: 0.341
S2Q: 0.219
S2C: 0.34
S2K: 0.152

Sample 2
Target: RNA binding protein fox-1 homolog 2, RRM domain, GST-SBP tag (RBFOX2, Homo sapiens, UniProt O43251-10, residues 100-194)
Technique: RNA Bind-n-Seq
Molecule type: RNA
Medium: in vitro
Tested at: 365 nM
Setting: natural RNA segment, single round, ends assumed
Baseline: no-protein control
Direction: higher = stronger binding
Endpoint: RBNS enrichment (R)
All sequences stand within: GGGAGUUCUACAGUCCGACGAUC … UGGAAUUCUCGGGUGCCAA
Construct (chain): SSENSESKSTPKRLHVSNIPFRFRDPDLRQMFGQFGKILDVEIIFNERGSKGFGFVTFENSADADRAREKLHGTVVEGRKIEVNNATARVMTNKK
CAGAUAUUCUUUCGGGUUUUGUACCUCAAGGUUCCCCUCCCCACAUUGUAAAUACACUUUAAGUGAAUACAGUUUUAGAGAACAAAAGAAAAAAAAAGAAUAAAUAAAGG: 0.638
AUUGUGUAACAAGUACUGCUCCCAGCAGCAAUUAGGGAGAAAACUAGUCUAAAUUAUUUCAACUGGAAAAAAGAAAAAAGAGUCCUCUUCUUUUCCCAGCCUUUUGCAGA: 0.385
GUCGUGGGACUUCAGGCCACAUUGGCUUGAAGGCAUUCGUUUCCUUCUGGGGUGGGGACAGGCCCUCAUGGCAGGCUUGUUCCCGUGGCUCUGAGCGAGGCCUCUUCCUG: 0.283
GUUUAAAUUUCCCUUAUAUUUCCACCUGUAAUGUCAGUGGCAACAACAUCAUACUUCACUUACUUGUUAAUUUACUUUUUACCCUUAUUCUAAGAGCAAGUUGAGUUGAA: 0.723
GUGAGUGUAUCAGAAUGCCAGGGAGGGCACCAGCCCUGAUCCACAGACCUCGGAAAGAUGCCCCUGUUCCUUUGUUGCGGGUGGUUUUGGUAAGGCAGAGCCCUCUGCUG: 1
UUUAGGCAGUGAGUAAUGCUUAUAAGCAAAUUACUGAAGGAUUUAAAAAUGGACAGCCAAUGUGUUCAGCCGCUCUGGCCUGUACCCCCUGGGGCCUCUAGUGUAUUGUA: 0.872
AAGUUCUAGAUCUUACUUGGUUUCUUCUAGAAUCAGUCUUCAGGAAUGGAUUUUGUCACAAAUGGGGCAUGGGGGCUUUCUGAGGAAAUAACUACAAGUCUUGGUGGUGG: 1.04
AGAGAAAAUGAGGAAGAAGCAAAAGUGGAAACCCCUGAUAAGCCAUCAGAUCUUGUGAAACUUAUUCACUAUCACAAGAAUAGCAUGGGAAAGACUGGCCCCCAUGAUUC: 0.44
CCUUUCUGUUUGGCCUGAUUAACAUUUAAAUUCUUGCCAAAAUUAAGGUAACUUUUAAAAAACACCUUUUAUAGGUGGAUCCAGCAGUCUGGCAACGCCCACAGUUACCA: 0.322
CUUCAUUCUACGUGGAAUACUAGAUCCCGUUUGUUAGCCUUCGUGACUCCGUCCUUGUCUCCUGUAAUAUACUGACCCUGUGUGCAGAGGCGUUUUUGUUCCCUUUUGUU: 0.722
GCUCUCCACGUGUGGAAGCGCAUCUGCUUUCCUUGCUGUCUGUGCAAAUGCUGAACAAGGAGACAGACACACACUAAUCCUCAGCACAGAGCUGGAAAGCUCAUUUCUGG: 0.668
GGACUCCCUAGUGCCCAUGCUGAGAUCUCAGCAUGUUCUAGAUGGGUCCUCUAGAGCACGGGUUUGGAGAAAUGACUGUUUUCAUGAAAGCACCAUUAGCACCACAGAAU: 1.16

Sample 3
Target: Ras GTPase-activating protein-binding protein 1, full length (G3BP1, Homo sapiens, UniProt Q13283)
Sequence of UniProt Q13283 (whole entry, looked up): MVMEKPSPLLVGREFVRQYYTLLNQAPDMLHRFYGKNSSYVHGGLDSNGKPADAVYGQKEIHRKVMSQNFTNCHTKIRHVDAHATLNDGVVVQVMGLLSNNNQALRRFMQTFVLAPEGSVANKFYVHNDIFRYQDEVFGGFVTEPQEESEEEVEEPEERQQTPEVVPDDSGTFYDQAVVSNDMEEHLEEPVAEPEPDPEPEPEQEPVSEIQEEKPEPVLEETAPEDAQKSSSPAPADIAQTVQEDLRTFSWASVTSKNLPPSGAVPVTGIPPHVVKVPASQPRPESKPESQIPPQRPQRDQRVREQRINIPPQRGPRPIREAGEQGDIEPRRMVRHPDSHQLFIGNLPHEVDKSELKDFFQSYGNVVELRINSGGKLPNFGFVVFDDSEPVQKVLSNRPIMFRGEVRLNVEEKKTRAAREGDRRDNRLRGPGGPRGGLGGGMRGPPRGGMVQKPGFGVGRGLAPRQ
Technique: RNA Bind-n-Seq
Molecule type: RNA
Medium: in vitro
Tested at: 200 nM
Setting: whole 134-nt RNA, ends assumed
Added: 150 mM KCl
Baseline: input library
Direction: higher = stronger binding
Endpoint: log2 enrichment
All sequences stand within: GGGAGUUCUACAGUCCGACGAUC … UGGAAUUCUCGGGUGUCAAGG
GCAGGAAGUAAAAACAAAUGGAAAUGCUAAAGAUAGUGGCAGGGGUGGGGGUUGCUAAGGAAAGGGUGGGAUGGGAGUGGGUAAAGAGUU: 1.34
AGUCCUGUGCUACACAUCGUAUGUACCGAAUCGGGAAAAAGGGAAAAAGGGAAAAAGGAAAGUAUUAUGUUACGCCGUUCGGAUCUGCAC: -0.722
CAAGUCCUGUGCUACACAUCGUAUGUACCGAAUCGGGGUUUGGGGUGGGGAGGGGAAAGUAUUAUGUUACGCCGUUCGGAUCUGCACUUC: 1.3
AGUCCUGUGCUACACAUCGUAUGUACCGAAUCGGGGAAAAAAAGGGGUGGGGAGGGGAAAGUAUUAUGUUACGCCGUUCGGAUCUGCACU: 0.437
AAGUCCUGUGCUACACAUCGUAUGUACCGAAUCGGGGAAAGGGGAGGGGUUUGGGGAAAGUAUUAUGUUACGCCGUUCGGAUCUGCACUU: 0.28
UAACUUUAGAGGAGGAUCUGAUGGAUAUGGCAGUCGACGUGGAUUUGGGGAUGGCUAUAAUGGGUAUGGAGGAGGACCUGGAGGUGGCAA: 0.179
UGAACCUUCCAAUAGCAACCAAGAAAUAAACUCUGAUGACAGACGACCCCAAUGGAGACGAGAAGACCGAAUUCCUUACCAAGACAGAGA: 0.282
GUUUGAUGAUCGUGGACGGAGUGAUUACGAUGGCAUUGGCAGCCGUGGUGACAGAAGUGGCUUUGGCAAAUUUGAACGUGGUGGAAACAG: 1.19
AAGUCCUGUGCUACACAUCGUAUGUACCGAAUCGGGAAAGGGAAAGGGUUUUUGGGAAAGUAUUAUGUUACGCCGUUCGGAUCUGCACUU: -0.0253
CAAGUCCUGUGCUACACAUCGUAUGUACCGAAUCGGGCCCGGGCCCGGGGCCCGGGAAAGUAUUAUGUUACGCCGUUCGGAUCUGCACUU: -1
GUCCUGUGCUACACAUCGUAUGUACCGAAUCGGGGUUUUUUUGGGGAAAGGGGAGGGGAAAGUAUUAUGUUACGCCGUUCGGAUCUGCAC: 0.306
UCCUGUGCUACACAUCGUAUGUACCGAAUCGGUUUUUUGGGUUUUUUGGGUUUUUUGGGGAAAGUAUUAUGUUACGCCGUUCGGAUCUGC: -0.469
CAAGUCCUGUGCUACACAUCGUAUGUACCGAAUCAAAUUUAAAUUUAAACCCAAAAAAGUAUUAUGUUACGCCGUUCGGAUCUGCACUUC: -0.315
UGGGAGGUGGAUUUUGUUUAUUUUUUUAGCUCAUUUCCAGGGGUGGGAAUUUUUUUCUAAUAUGUGUCAUGAAUAAAGUUGUUUUUGAAA: 0.213

Sample 4
Target: Interferon regulatory factor 7, full length, phosphomimetic (IRF7, Homo sapiens, UniProt Q92985, residues 1-503, S471D/S472D/S475D/S476D/S477D/S483D/S484D/S487D)
Sequence of UniProt Q92985 (whole entry, unmodified, looked up): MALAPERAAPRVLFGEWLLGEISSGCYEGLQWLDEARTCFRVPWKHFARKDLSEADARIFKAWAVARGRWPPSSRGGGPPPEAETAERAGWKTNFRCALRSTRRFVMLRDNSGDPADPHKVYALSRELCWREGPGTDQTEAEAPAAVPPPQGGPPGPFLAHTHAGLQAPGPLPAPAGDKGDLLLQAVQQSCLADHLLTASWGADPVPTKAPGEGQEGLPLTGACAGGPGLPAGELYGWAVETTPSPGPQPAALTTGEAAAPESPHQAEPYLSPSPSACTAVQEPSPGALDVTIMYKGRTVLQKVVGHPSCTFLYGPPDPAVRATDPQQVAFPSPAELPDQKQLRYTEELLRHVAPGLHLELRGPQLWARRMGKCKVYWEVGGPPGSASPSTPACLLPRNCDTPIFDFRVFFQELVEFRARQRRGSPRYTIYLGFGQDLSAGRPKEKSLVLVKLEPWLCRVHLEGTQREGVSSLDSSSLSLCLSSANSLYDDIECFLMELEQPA
Technique: protein-binding microarray
Molecule type: double-stranded DNA, one strand shown
Medium: in vitro
Tested at: 2200 nM top
Setting: 60-bp whole probe
Added: salmon DNA 0.4 mg/ml
Baseline: random background probes
Direction: higher = stronger binding
Endpoint: fitted relative affinity
All sequences stand within: GCCTAGCAC … GTCTTGATTCGCTTGACGCTGCTG
GCCGATTCCAGTTTCGAGACGTGCTAG: 4.53 z-score
GACGGTTTCGGACTGGGGACGTGCTAG: 3.74 z-score
GAGGATTCCAGTTTCGAGACGTGCTAG: 4.29 z-score
GACGAACGGGGGTATCGAGACGTGCTA: 0.783 z-score
GTGATCCGTCCGCCTCAGCCGTGCTAG: 0.601 z-score
GACGATTTCAGTCTTGAGACGTGCTAG: 0.734 z-score
GACGGTTTCCTTATCCTCACGTGCTAG: 3.03 z-score
TTAGATATCCGGTTTCGATTAGTGCTA: 4.57 z-score
AATAGCTTTTCATTTTTTAACGTGCTA: 0.856 z-score
TGGTTTTACTTTCTATCTCTGTGCTAG: 5.71 z-score
TCAAGTTTTCCTCTGTCACTGTGCTAG: 1.87 z-score
TTAGATCTCAGCCTGGATTAGTGCTAG: 0.0147 z-score
TCATGCCTGTTTTTCCCACTGTGCTAG: 1.93 z-score
TCACCTCTCTCTATTCAACTGTGCTAG: 2.2 z-score
CCCATTCCAGGGTTTTATGGAGTGCTA: -0.0658 z-score
TAGTCTCTTCTGCAGCCTTTGTGCTAG: 0.882 z-score
CTTTACATGGGTTTTCAGCTGGTGCTA: 0.768 z-score
GACGAACTGAGTTTCAAGACGTGCTAG: 0.0124 z-score
TTAGGACTGGACTTTCGGTCAGTGCTA: 1.48 z-score
GACGGTTGCCTTCTCCTGACGTGCTAG: 0.768 z-score
TTAGATTTCGGGTATCGATTCGTGCTA: 3.57 z-score
GACGATATCAGACTGGCGACGTGCTAG: -0.186 z-score
TCATGTTTCTTCTGCTGACTGTGCTAG: 2.16 z-score
GACGGACTGCTTCTCCTGCCGTGCTAG: 0.31 z-score

Repeated from above (sample 1):
K3A: 0.428
D12K: 0.109
K3H: 0.387
Q7E: 0.264
D11N: 0.285
D12Y: 0.768
L8V: 0.163
V6C: 0.258
Q7D: -0.158
